Measurements gathered from unrelated publications.
Each numbered part is a random draw from the data of one study; scales do not carry over between parts.

Study 1 — method: Spec-seq; molecule type: double-stranded DNA, one strand shown; medium: in vitro; tested at: not given; setting: whole probe, mean of replicates; baseline: not given; direction: lower = stronger binding; shared flanks, not repeated: GAGTCGTCTCGTCAGCAC … CCGTAGAGCACTCAGGTC
Target: POU, POU domain (Salpingoeca helianthica)
Target sequence (chain): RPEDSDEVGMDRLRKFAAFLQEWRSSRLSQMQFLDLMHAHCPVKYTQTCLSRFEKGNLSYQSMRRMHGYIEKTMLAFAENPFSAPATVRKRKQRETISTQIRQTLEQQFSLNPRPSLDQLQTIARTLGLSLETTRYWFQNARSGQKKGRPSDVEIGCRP
Sequence | relative binding energy
ATCCACAT | 1.43 ln ratio
ATACTGAT | 1.5 ln ratio
ATCGCCAT | 1.11 ln ratio
ATGCGGAA | 1.37 ln ratio
ATGCTTAT | 0.927 ln ratio
GTATTAAT | -0.108 ln ratio
TTAGTAAT | 0.147 ln ratio
ATGCTCTG | 1.07 ln ratio
ATGCTTTT | 0.971 ln ratio
ATCGGGAT | 1.57 ln ratio
GATTTAAT | -0.265 ln ratio
ATGCTAAG | 1.28 ln ratio
ATGCTTAA | 0.311 ln ratio
GTACTAAT | 0.395 ln ratio
ATATCTAT | 0.86 ln ratio
ATGAGAAT | 1.21 ln ratio
TGTGTAAT | 0.586 ln ratio
ATGCACTT | 1.07 ln ratio
GCGCTAAT | 0.605 ln ratio
TAAGTAAT | 0.144 ln ratio
CCTCTAAT | 0.746 ln ratio
TTTGTAAT | 0.276 ln ratio
CACGTAAT | 0.811 ln ratio
ATTTCCAT | 1.26 ln ratio
ATGCCAGG | 1.4 ln ratio

Study 2 — method: competition protein-binding microarray; molecule type: double-stranded DNA, one strand shown; medium: in vitro; tested at: 2 µM; with: Pho4 competitor, 0.05 µM; direction: higher = stronger binding
Target: Centromere-binding protein 1, full length, His-tagged (CBF1, Saccharomyces cerevisiae, UniProt P17106, residues 1-351)
Chain of UniProt P17106 (whole entry, looked up): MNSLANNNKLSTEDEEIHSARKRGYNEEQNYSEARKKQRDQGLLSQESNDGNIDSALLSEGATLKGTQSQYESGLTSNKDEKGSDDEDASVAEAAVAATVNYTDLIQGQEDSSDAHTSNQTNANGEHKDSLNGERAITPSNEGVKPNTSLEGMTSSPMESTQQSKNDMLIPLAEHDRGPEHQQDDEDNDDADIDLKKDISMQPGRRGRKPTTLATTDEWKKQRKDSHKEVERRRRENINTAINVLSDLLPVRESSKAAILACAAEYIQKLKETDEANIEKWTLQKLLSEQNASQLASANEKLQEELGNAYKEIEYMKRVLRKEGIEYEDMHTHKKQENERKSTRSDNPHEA
Setting: whole 60-bp probe, lowest competitor level
Sequence | fluorescence intensity
ACAGGCTTTTACCATCACCTGAGCAGCAGCAAGAAAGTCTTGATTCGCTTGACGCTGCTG | 256 a.u.
CTTAACAGCAACTTGAACGTGAAGATGAACTTTACTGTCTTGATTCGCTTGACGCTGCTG | 104 a.u.
TATCGAAAAGGTCCTCACGTTATAAGGCTAACAAATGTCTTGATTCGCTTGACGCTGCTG | 113 a.u.
TTTCCAACCTTCTGGCACGATAGTCTATGTCAAAATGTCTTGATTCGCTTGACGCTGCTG | 66.9 a.u.
TCCGTCAGTGTAGCGCGCGTGCGGACCAGAACGTCTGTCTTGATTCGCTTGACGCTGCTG | 57.5 a.u.
ATGTCAATGGTACAGCACGTGGTAATTACAGCGGTGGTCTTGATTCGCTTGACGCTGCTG | 1710 a.u.
TGCGCAACAACTTGGGTCGTGGGTGTATGTCTAGAAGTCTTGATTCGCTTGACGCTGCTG | 55.9 a.u.
CAGAAGGACTATTCACACGTGCCAGGCAAATTTTTTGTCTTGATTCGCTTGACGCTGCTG | 1480 a.u.
CGGGGTTAAGTTTGTCGGGTGGGTGGCTTGCAGCAGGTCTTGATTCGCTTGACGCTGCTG | 61.4 a.u.
CTAACGAAGGTTTTTCACGTGCACTACAAGCCAAGTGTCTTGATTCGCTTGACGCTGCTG | 862 a.u.
AGCGTAATCTATACCCACGTAAACCCACTGAGATAAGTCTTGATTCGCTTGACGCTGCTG | 78.7 a.u.
ACCCGCCCCTCGGGGCACGCGGTCTCCCGGCTTCTCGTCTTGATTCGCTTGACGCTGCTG | 61.9 a.u.
CTTTCCCGATCTTGTCACTGGACTTTAGCACATTTGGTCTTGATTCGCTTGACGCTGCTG | 94.1 a.u.
AAGACGGCACTATTCCATGTGACGGATTCCCATCTGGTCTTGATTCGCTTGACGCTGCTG | 240 a.u.
AAAAGAATTATTTGTCATGTGATTGCCATCCTACTTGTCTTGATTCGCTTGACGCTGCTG | 3110 a.u.
AGATGAGCGCTCAATCTCGTGAAGGCTATGTGTAGTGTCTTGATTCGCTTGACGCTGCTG | 109 a.u.
GCCCGGTCAAGTACTCACGTTCTGCTGTAGGTGACGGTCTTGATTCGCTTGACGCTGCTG | 102 a.u.
CGCAGTGAACTTGGCCATGTGGGGCCATCCCAAGATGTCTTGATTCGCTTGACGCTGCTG | 69 a.u.
AAAGCGGTAATTTGTCACGATACTTCACATATCTATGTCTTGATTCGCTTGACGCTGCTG | 249 a.u.
ATATCTTCTAAATCGCACGGGTTCAAGATCGCAAAAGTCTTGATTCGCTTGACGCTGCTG | 148 a.u.
TGCGCAACAACTTGGAGGGTGGGTGTATGTCTAGAAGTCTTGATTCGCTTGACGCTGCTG | 64.3 a.u.
AGAAGGAAGTAACTGCAGGTGAAGCACAGGACGAAGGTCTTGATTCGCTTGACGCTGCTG | 88.3 a.u.
AAAGCGGTAATTTGGCCCGTGGGTGCAGATATCTATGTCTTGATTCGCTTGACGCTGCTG | 73.2 a.u.
TGTACCACCTCTTTGAACGTGACAAAGAATGGTTACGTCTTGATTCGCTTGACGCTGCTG | 433 a.u.
TGTTTAGAGAGTCTTGCCTTCAGGTTTAATATAGTCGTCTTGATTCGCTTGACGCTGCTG | 68.1 a.u.

Study 3 — method: RNA Bind-n-Seq; molecule type: RNA; medium: in vitro; tested at: 365 nM; baseline: no-protein control; direction: higher = stronger binding
Target: RNA binding protein fox-1 homolog 2, RRM domain, GST-SBP tag (RBFOX2, Homo sapiens, UniProt O43251-10, residues 100-194)
Setting: natural RNA segment, single round, ends assumed
Residues (chain): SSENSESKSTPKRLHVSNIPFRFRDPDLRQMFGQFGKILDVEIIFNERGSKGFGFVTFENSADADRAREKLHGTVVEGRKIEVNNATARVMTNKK
Sequence | RBNS enrichment (R)
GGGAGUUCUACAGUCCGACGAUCUUUUCCCCCACCCUCCCAUGAGACUGCCCUGCCCAGGUAUCCUGGGGGAAGAGGAGAUGUGAUCAGGCCCCACCCCUGUAAUCAGGCAAGGAGGAGGAGUCAGAUGAGGCUGGAAUUCUCGGGUGCCAA | 0.477
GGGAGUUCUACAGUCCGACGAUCACCCCUACACACCGUCCGUUCACCCCCGUCUCUUCCUUCUGCUUUUCGGUUUUUGGAAAGGGAUCCAUCUCCAGGCAGCCCACCCUGGUGGGGCUUGUUUCCUGAAACCAUGGAAUUCUCGGGUGCCAA | 0.431
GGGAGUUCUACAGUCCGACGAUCCAUUUCAAAAUACUUUAGUAUAUCAAUAUCAGUAGAUACCAGUGGGUGGGAAAGGGUCAUUACAUGAAAAUAUGAAGAAAUAGCCAUAUUAGUUUUUUAACCUGCAAUUUUGGAAUUCUCGGGUGCCAA | 0.47
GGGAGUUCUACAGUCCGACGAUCGCAUUUUGUACUUAGCUGUACUGUGUGAUAUUUUUCAUUAUUUUAGGACGCCAACAUGAGACCUGUAAUAAAAUAUGUAAUGGGGUUGAAAGCUGGGGAGGAGGAUCUACUGGAAUUCUCGGGUGCCAA | 0.563
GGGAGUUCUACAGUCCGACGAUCUGCUUCAAGAUGUCAGAAAGUCAAGUUCAGCUAAGAGACACCCAGGUCCCCAGCUUGCCCUGAGCAGCCCUUCAGGGCUUCUGGUUCCUUCUGCCGCCCUUCCUGAGACCUGGAAUUCUCGGGUGCCAA | 0.289
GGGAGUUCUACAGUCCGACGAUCGGAGAAGGGGAAGCCUCUUGGAGACAGAGGGUUUCACCUUAUAUGACCUCAAGAGAAACAGCCUAAGAAGCCCGCCUUCUGGUCCCAAUCUGCAGACCCUCCAGCAGUUGUGGAAUUCUCGGGUGCCAA | 0.353
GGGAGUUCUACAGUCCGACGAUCGUAUGUUUGUAUAUGUAGGACAAUAAGUUCCUUCUGACACAAGGGAGACACGAGAAGGAUAGCCUGACAUCAGAUGACAGACUGGAGGACUGUAGCACAUCUCUGGGCGUUGGAAUUCUCGGGUGCCAA | 0.823
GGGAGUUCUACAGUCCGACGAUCCUCUGCAUUUAGAAGUAUACACAGUACAACUGUUAAUUCUGUAAGUAAUUUUUAUAAUUAUGAUGUAACUCUUAUCCUUCCUUAAAACAUUAAAAUAAACCCUUUAUGUGUGGAAUUCUCGGGUGCCAA | 1.06
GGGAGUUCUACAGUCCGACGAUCCACACCUUGCACAGAGCACUGGUGCUCACACUCUAGUGUGAUCCAAUGAUGUCAACACCCCAAGAAGAUCUACCCAACUAUAUCAAGUUCAGAGAUGGCAAUGGAUGAUGUGGAAUUCUCGGGUGCCAA | 0.317
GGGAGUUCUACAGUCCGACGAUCGGCACCUCCGUGUUUGGUCUUUUUUUUCCCCUGUGUGAAAGAAGAAACGGCACGACCCCUUCUCAAGCUGGCUCACUCAGACACAUUGGGACAAACCCUGGACAGCCAUGUGGAAUUCUCGGGUGCCAA | 0.243
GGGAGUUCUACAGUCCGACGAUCUUUUGGGGGUCUUUAGACUCUUGAAGGCAACUCAGGGUAUUGUCCACGCAGCUCUCUGGUUAGACUUCUCCCAGGCUAUGAUCCUGGCAUGUCCUUUAUAAGGUAUACUUUGGAAUUCUCGGGUGCCAA | 0.325
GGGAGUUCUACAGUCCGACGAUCAGAGGGAUGACUGCUGGGGGUAGACUGGGUGCCAGGGGCCAUGGGCCCAGGACCCAGUCUUGGCCAUUCAGUUGAGUGAGGCUGAAGGCUGGGUUUGAAAAGGCAAAAAGUGGAAUUCUCGGGUGCCAA | 0.757

Study 4 — method: RNA Bind-n-Seq; molecule type: RNA; medium: in vitro; tested at: 200 nM; setting: whole 134-nt RNA, ends assumed; with: 150 mM KCl; baseline: input library; direction: higher = stronger binding
Target: Ras GTPase-activating protein-binding protein 1, full length (G3BP1, Homo sapiens, UniProt Q13283)
Chain of UniProt Q13283 (whole entry, looked up): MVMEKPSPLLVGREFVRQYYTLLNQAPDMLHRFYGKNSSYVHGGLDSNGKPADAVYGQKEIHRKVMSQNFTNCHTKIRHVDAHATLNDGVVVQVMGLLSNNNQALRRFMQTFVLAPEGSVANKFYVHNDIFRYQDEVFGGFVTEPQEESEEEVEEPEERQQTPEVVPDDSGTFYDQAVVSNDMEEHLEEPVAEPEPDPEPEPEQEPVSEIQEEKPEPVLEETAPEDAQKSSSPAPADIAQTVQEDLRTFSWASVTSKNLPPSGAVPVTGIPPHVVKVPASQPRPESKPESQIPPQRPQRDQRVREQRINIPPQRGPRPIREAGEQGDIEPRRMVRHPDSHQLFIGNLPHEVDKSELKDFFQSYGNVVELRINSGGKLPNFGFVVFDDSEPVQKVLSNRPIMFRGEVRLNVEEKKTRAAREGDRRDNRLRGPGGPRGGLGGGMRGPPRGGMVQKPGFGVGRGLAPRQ
Sequence | log2 enrichment
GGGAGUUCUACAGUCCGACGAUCCCUGUGCUACACAUCGUAUGUACCGAAUCAAACCCCCCCAAACCCCCCCAAACCCCCAAAAAAGUAUUAUGUUACGCCGUUCGGAUCUGCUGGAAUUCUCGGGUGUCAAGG | 0.673
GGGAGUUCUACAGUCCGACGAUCCCUCAAGUCCUGUGCUACACAUCGUAUGUACCGAAUCGGCCGGGCCGGCCGGGAAAGUAUUAUGUUACGCCGUUCGGAUCUGCACUUCCAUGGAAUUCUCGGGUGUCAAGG | -0.398
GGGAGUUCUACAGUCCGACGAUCUCCUGUGCUACACAUCGUAUGUACCGAAUCGGGAAAAAGGGGAAAAAGGGGAAAAAGGGAAAGUAUUAUGUUACGCCGUUCGGAUCUGCAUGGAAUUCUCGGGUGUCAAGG | -0.0294
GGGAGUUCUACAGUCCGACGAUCCUGUGCUACACAUCGUAUGUACCGAAUCGGCCCCCCCGGGCCCCCCCGGGGCCCCCCCGGGGAAAGUAUUAUGUUACGCCGUUCGGAUCUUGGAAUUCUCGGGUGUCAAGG | -1.28
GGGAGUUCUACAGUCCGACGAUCGUCCUGUGCUACACAUCGUAUGUACCGAAUCGGAAAAAAGGAAAAAAGGGAAAAAAGGAAAGUAUUAUGUUACGCCGUUCGGAUCUGCACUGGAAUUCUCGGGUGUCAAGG | -1.02
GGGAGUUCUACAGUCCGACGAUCGCAGGAAGUAAAAACAAAUGGAAAUGCUUCGGAUAGUGGCAGGGGUGGGGCUUGCUAAGGAAAGGGUGGGAUGGGAGUGGGUAAAGAGUUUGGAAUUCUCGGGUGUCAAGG | 0.911
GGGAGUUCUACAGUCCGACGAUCCACAGACAACACGCACCCACACAGACACAGAGGGAAGGGGUUGGGAUGGGGACAGGGUGCACACCAGGGCGGGGUAGGACCCCAGCCCCUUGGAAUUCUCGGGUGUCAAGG | 1.91
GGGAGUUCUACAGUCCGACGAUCUAACUUUAGAGGAGGAUCUGAUGGAUAUGGCAGUGGACGUGGAUUUGGGGAUGGCUAUAAUGGGUAUGGAGGAGGACGUGGAGGUGGCAAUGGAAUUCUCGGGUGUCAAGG | 0.819
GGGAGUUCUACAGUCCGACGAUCUCAGUGUCUUACCCUGAAGAGAAAGUUGUAGGUUGGCUGUUGAAAUUCAUUCCUUAGAUAUGAUCAGUUUGAUUGCCCGGCUUUAUUGCCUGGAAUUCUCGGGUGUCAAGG | -1.73
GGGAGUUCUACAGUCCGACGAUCCCUGUGCUACACAUCGUAUGUACCGAAUCGGGGUUUUUGGGGAAAAAGGGGUUUUUGGGGAAAGUAUUAUGUUACGCCGUUCGGAUCUGCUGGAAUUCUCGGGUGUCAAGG | 0.312

For quick reference, copied from above (study 1):
Sequence | relative binding energy
GATTTAAT | -0.265 ln ratio
ATGCTAAG | 1.28 ln ratio
ATGCTTAA | 0.311 ln ratio
GTACTAAT | 0.395 ln ratio
ATATCTAT | 0.86 ln ratio
ATGAGAAT | 1.21 ln ratio
